# Measurements gathered from unrelated publications.
# Numbered parts are unrelated; each lists some results of a single study.

# Block 1 — technique: protein binding microarray; form: double-stranded DNA, one strand shown; medium: in vitro; tested at: not given; baseline: not given; direction: higher = stronger binding
# Target: Histone acetyltransferase KAT6A, both winged helices, GST fusion (KAT6A, Homo sapiens, UniProt Q92794, residues 1-181)
# Notes: 8-mer, flanks averaged, mean of 2 arrays, mostly near background
# Target sequence (chain): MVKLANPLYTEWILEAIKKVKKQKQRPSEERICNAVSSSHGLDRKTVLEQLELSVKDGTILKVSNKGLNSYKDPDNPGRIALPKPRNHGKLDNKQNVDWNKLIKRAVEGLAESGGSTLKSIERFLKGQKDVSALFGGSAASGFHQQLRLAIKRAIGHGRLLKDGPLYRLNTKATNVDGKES
Strand,E-score
GGGATCCC,0.112
AGGGACTA,-0.127
AAGACAGT,-0.0889
CAGCTGAG,-0.203
ACACTCGG,0.124
AGTAGCGC,0.29
GGCTCCAA,-0.0635
CATCGACG,0.0933
GACCCCGC,0.293
TAGGGGGA,-0.238
ACAAATAG,0.0582
AAAACTGA,-0.101
TGAGGACA,-0.256
CTGGGAAG,-0.0945
CTACCTCC,-0.141
ACCCTATC,-0.0472
CCCTCTAA,-0.155
AGTCAAAG,-0.144
ACAGGTCA,-0.0927

# Block 2 — technique: protein-binding microarray; form: double-stranded DNA, one strand shown; medium: in vitro; tested at: 940 nM top; notes: 60-bp whole probe; added: salmon DNA 0.4 mg/ml; baseline: random background probes; direction: higher = stronger binding; shared flanks, not repeated: GCCTAGCAC … GTCTTGATTCGCTTGACGCTGCTG
# Target: Interferon regulatory factor 5, full length, phosphomimetic (IRF5, Homo sapiens, UniProt Q13568-2, residues 1-514, S451D/S453D/S456D/S462D)
Strand,fitted relative affinity [z-score]
GACGATAACGGGTTTCGAGACGTGCTA,1.73
TTAGGTATTCTTCTCCTTTAGTGCTAG,0.88
GACGATTTCAGTCTCGATACGTGCTAG,3.87
TTAGGTTACGGTCTCGGTTAGTGCTAG,2.06
GACGATATCGGGATTCGAGACGTGCTA,-0.236
TCATCTTTGCTCATTTTTACTGTGCTA,1.2
TTAGGACTGGGGTATCGGATAGTGCTA,0.548
TTAGGTTTGGGTTCCGGTTAGTGCTAG,0.97
TCAACTCTCTACATGGGACTGTGCTAG,0.62
GACGGTTCCGGTGTCGGGACGTGCTAG,1.67
GACGTTTTCCTACTGCTGACGTGCTAG,0.558
GCCGGTTTCGGGTTTCGGGACGTGCTA,9.55
TCACTTTGGCCTCTAGGACTGTGCTAG,-0.241
TTAGGGCTGGGTATCGGTTAGTGCTAG,3.74
TTTTGCTTTCTTTTTGCACTGTGCTAG,2.6
ACCCTTGAGTGGTCCAGAGTGTGCTAG,-0.473
TTTGGTCTCGGTTTCGGTTAGTGCTAG,11.5
TCATCACTTTCTTTAACACTGTGCTAG,2.22
CATTTTCTAAATTCCCTAGTGTGCTAG,0.704

# Block 3 — technique: RNA Bind-n-Seq; form: RNA; medium: in vitro; tested at: 365 nM; baseline: no-protein control; direction: higher = stronger binding
# Target: RNA binding protein fox-1 homolog 2, RRM domain, GST-SBP tag (RBFOX2, Homo sapiens, UniProt O43251-10, residues 100-194)
# Notes: natural RNA segment, single round, ends assumed
# Shared flanks, not repeated: GGGAGUUCUACAGUCCGACGAUC … UGGAAUUCUCGGGUGCCAA
# Construct (chain): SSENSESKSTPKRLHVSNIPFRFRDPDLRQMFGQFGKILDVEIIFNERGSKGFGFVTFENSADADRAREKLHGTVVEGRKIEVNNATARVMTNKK
Strand,RBNS enrichment (R)
GCCCUCCUUCUUUAUUUUUUUCCCAUUGCAUUCUGGGAGUCCACAUCUGGCUUUCUCAGCCACUGUUCAUCACCAGGGGUUUUAGGAGGAAGGCUUGGCUCCUGUCUUCC,1.11
GUUAAAUGAGGCAUUGUUUUCUUUAUUUAAGAUUGAGUUAUGACUUUAAAUGUUUAUGAGCUAGUUUAUGCCUCGGAAGACAUAAGGUUUCCCAUUCCAAUUUGAAUCUU,0.514
AUUUACCUUCUGUGUCCUGGCCCUGCCACCUGUGUAUUUUUAGGGUGCUAUGGAAACAAUGAAGAGAAACGGGGAUUUCAGAAGAAAAUUGUAACCAAAUUCAUAUACUU,0.587
UAAUGAAUUUUUUAAAGGGAACUUUCUAUGCAAUGUUCAGGAUAAAUGCAUACUGCUGGCCAAUCAGUGUCAUCUCCUGGGUAAAUUUUGAUGUCGCAUUAUAAAGACAU,0.772
AGGUCUAUUCGGAUUGCAUAGGGGUAUAUUAAUAUAUUUUAAACUCACCUAGAUUACACUCAAUUGAUACCCACUCAUGAAGAUUUUGCUGAGAUUUUAUGAUUCCAGGU,0.716
UACAAGGACUUUUGACAGUUUAGUGCUUAGUAACUAGUCUUAGUUUUCUUCCUUUUAGAAAAACUGUACAUUUGAUCUCUCAAUUCUGUUUGCAAAGCAGUGCAGAAAAC,0.259
GUACCUGGAAAUGUGAAUCUGGAUUCUUACCUGUGUCAUCAGAGUAGUAAUGGAUUCAGUACUCCUCAACUCCUAAUGAUUGAGAAGAAGGCAAACGAUAAAGAAAUCCC,0.413
GGUAGGCUGUUUCACCGUCUUCUGGACUGUUUACUACAUGCUGGAAGUAUAUUUGAGCCAGAGGAAUGUGGCUUCCAAUCAAGUUUGUAGGAGUGGACCCUGCCACUGGC,1.11

# Block 4 — technique: universal PBM; form: double-stranded DNA, one strand shown; medium: in vitro; tested at: not given; direction: higher = stronger binding
# Target: Sal-like protein 4, full length isoform B (SALL4, Homo sapiens, UniProt Q9UJQ4-2, residues 1-616)
# Notes: 8-mer, flanks averaged, mean of replicates
# Residues (chain): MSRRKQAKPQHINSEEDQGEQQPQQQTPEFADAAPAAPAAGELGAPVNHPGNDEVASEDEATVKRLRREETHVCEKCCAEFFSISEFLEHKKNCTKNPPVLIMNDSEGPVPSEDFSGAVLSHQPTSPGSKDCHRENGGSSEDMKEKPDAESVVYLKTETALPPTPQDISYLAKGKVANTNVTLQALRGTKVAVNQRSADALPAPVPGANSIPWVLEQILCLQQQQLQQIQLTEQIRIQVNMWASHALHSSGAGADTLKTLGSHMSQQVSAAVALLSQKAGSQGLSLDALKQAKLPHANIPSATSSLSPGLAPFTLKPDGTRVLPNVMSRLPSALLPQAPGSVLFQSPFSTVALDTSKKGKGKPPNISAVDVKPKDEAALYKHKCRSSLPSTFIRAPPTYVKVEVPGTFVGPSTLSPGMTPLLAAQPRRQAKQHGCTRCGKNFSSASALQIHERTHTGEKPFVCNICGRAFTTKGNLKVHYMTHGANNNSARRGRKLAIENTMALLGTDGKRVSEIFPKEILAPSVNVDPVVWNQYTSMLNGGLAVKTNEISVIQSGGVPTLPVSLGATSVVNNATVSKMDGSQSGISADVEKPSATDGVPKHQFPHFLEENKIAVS
Strand,E-score
GCAGTTGA,-0.106
ATGAAAAT,0.4
AATTCCTC,-0.0206
ACTAAACC,0.00645
CTGCCAAC,-0.0291
GCGAACGA,-0.149
CGGAAATC,-0.098
GTGCTGGA,-0.147
AACACGTC,-0.0241
AGTTCCCC,-0.206
AGGGGAAT,-0.0979
GGCCGTAC,-0.161
ACCAGCGC,-0.193
GAAAGTCC,-0.167
AAGGCTTG,-0.0314
CCGGACCG,-0.408
CAGACCCA,-0.145
ATGAGCTG,-0.0171
ACCTGCTC,-0.147
AATCGACG,0.0186
AAGCCTCA,-0.191
GACAACTC,-0.0685
GGTTTATA,0.198
ACCCCTCA,-0.21
AACGTCCT,0.0373

# Block 5 — technique: aptamer microarray, sandwich; form: DNA with 2'F-ANA; medium: in vitro; tested at: 200 nM; added: Cy3 exosite-II aptamer, 400 nM; direction: higher = stronger binding; strand: GGTTGGTGTGGTTGG
# Target: Prothrombin, mature alpha-thrombin (F2, Homo sapiens, UniProt P00734)
# Notes: whole 15-mer aptamer, many near background
Modification,mean fluorescence intensity
2'F-ANA at 2 6 9 11 12 13 14,306 a.u.
2'F-ANA at 1 2 3 6 10 11 12 13,78.8 a.u.
2'F-ANA at 1 2 3 4 9 13 14,59.1 a.u.
2'F-ANA at 1 3 4 5 7 8 11 13 15,57 a.u.
2'F-ANA at 1 5 7 10 12 14 15,110 a.u.
2'F-ANA at 1 2 3 4 5 7 8 13 14,66 a.u.
2'F-ANA at 1 2 4 5 6 9 11 12 14,51.2 a.u.
2'F-ANA at 3 9 10,531 a.u.
2'F-ANA at 1 2 3 6 9 10 11 13,61.7 a.u.
2'F-ANA at 1 2 8 10 12 13 15,63.2 a.u.
2'F-ANA at 1 3 6 9 10 11 13 14,61.5 a.u.
2'F-ANA at 6 7 9 10 12 13 14,116 a.u.
2'F-ANA at 1 2 4 5 6 8 9 10 13 14 15,52.5 a.u.
2'F-ANA at 1 2 3 4 5 6 7 13 14 15,49.4 a.u.
2'F-ANA at 3 4 5 6 7 12 13 14,79 a.u.
2'F-ANA at 1 2 3 4 5 7 8 10 11 13,46.5 a.u.
2'F-ANA at 3 5 6 8,133 a.u.
2'F-ANA at 3 5 7 8 9 10,58.6 a.u.
2'F-ANA at 1 7 10 11 12 13 14 15,48.7 a.u.
2'F-ANA at 3 4 5 6 7 13 15,59.2 a.u.
2'F-ANA at 1 2 4 7 8 9 10 11 12 14 15,47.6 a.u.

# A few entries again (block 4):
Strand,E-score
CGGAAATC,-0.098
GTGCTGGA,-0.147
AACACGTC,-0.0241
AGTTCCCC,-0.206
AGGGGAAT,-0.0979
GGCCGTAC,-0.161
ACCAGCGC,-0.193
GAAAGTCC,-0.167
AAGGCTTG,-0.0314
CCGGACCG,-0.408
CAGACCCA,-0.145
ATGAGCTG,-0.0171
